Assay results from different studies.
Each line is one published result; not all experiments were run side by side. ± gives the spread as reported.
CTSL: Procathepsin L (CTSL, Homo sapiens, UniProt P07711)
Mitogen-activated protein kinase 14: Mitogen-activated protein kinase 14 (Rattus norvegicus, UniProt P70618)
CYP2D6: Cytochrome P450 2D6 (CYP2D6, Homo sapiens, UniProt P10635)

COc1ccc(S(=O)(=O)Oc2ccc(/C=N/NS(=O)(=O)c3ccc(Cl)cc3)cc2)cc1
IC50 (Carbonic anhydrase 2 (CA2, Homo sapiens, UniProt P00918); enzyme activity, inhibitor, absorbance): 0.302 µM

CNC(=O)C[C@H](Cc1ccc(F)cc1)NC(=O)[C@@H](Cc1ccc(Cl)cc1Cl)NC(=O)[C@H](N)Cc1ccccc1C#N
IC50 (CTSL; enzyme activity, inhibitor): > 10 µM

CCN1CCC[C@H]1CNC(=O)c1cc([N+](=O)[O-])c(N(C)C)cc1OC
IC50 (uncharacterized protein (Apis mellifera, UniProt A0A7M6W5G5); enzyme activity, inhibitor, Ellman; pH 7.4, 30 °C, together with: 1 mM acetylthiocholine): 15 µM

CCCN(CCCC[C@H](NC(=O)[C@H](CCCN1CCOCC1)NC(=O)[C@@H](NC(=O)[C@H](Cc1ccccc1)NC(=O)c1ccc(C(C)(C)C)cc1)C1CCC1)C(=O)N[C@@H](CO)C(N)=O)C1CC2CCC1C2 (some centres unmarked)
IC50 (Chromobox protein homolog 7 (Homo sapiens, UniProt O95931); ligand displacement, TR-FRET): 11 µM

N=C(N)NCCC[C@H](NC(=O)[C@@H]1CCCN1C(=O)[C@H](N)Cc1ccccc1)C(=O)CCl
IC50 (Furin (FURIN, Homo sapiens, UniProt P09958); enzyme activity, inhibitor; together with: pERTKR-AMC 5 µM): > 10 µM

CC(C)C[C@H](NC(=O)[C@H]1O[C@@H]1C(=O)O)C(=O)NCCCCN=C(N)N
IC50 (CTSL; enzyme activity, inhibitor): 0.0064 µM

CC(C)C[C@H](NC(=O)[C@H](CC(=O)O)NC(=O)[C@H](CCCNC(=N)N)NC(=O)[C@@H]1CCCN1C(=O)[C@H](CCCCN)NC(=O)[C@H](CCCNC(=N)N)NC(=O)CNC(=O)[C@H](CCCCN)NC(=O)[C@H](C)NC(=O)[C@@H](N)Cc1ccc(O)cc1)C(=O)N[C@@H](CCC(=O)O)C(=O)N[C@@H](CC(C)C)C(=O)N1CCC[C@H]1C(=O)N[C@@H](CC(C)C)C(=O)N[C@@H](CO)C(=O)N1CCC[C@H]1C(=O)O
IC50 (Mitogen-activated protein kinase 14; enzyme activity, inhibitor, fluorescence; pH 7.4): 411 µM

O=C(O)CCn1c(=O)oc2cc(Cl)c(Cl)cc21
IC50 (cGMP-inhibited 3',5'-cyclic phosphodiesterase 3A (PDE3A, Homo sapiens, UniProt Q14432); enzyme activity, inhibitor): > 100 µM

CC(C)NCCN1C(=O)CSC1c1ccc(Cl)cc1Cl (centres unmarked)
IC50 (uncharacterized protein (Anopheles gambiae, UniProt Q7QFG0); enzyme activity, inhibitor, Ellman; together with: 1 mM acetylthiocholine): > 200 µM

CC(C)CN(CCCC[C@H](NC(=O)[C@H](CCCN1CCOCC1)NC(=O)[C@@H](NC(=O)[C@H](Cc1ccccc1)NC(=O)c1ccc(C(C)(C)C)cc1)C(C)C)C(=O)N[C@@H](CO)C(N)=O)C1CC2CCC1C2 (some centres unmarked)
IC50 (Chromobox protein homolog 8 (Homo sapiens, UniProt Q9HC52); ligand displacement, TR-FRET): 0.086 µM

C[C@H](N)C(=O)N[C@@H](CC(N)=O)C(=O)N[C@@H](CS)C(=O)N1CCC[C@H]1C(=O)N[C@@H](CC(N)=O)C(=O)N[C@@H](Cc1ccc(O)cc1)C(=O)N[C@@H](CCCCN)C(=O)N[C@@H](CS)C(=O)N[C@@H](CCCNC(=N)N)C(N)=O
IC50 (Pyruvate kinase PKM (PKM, Homo sapiens, UniProt P14618); enzyme activity, inhibitor, fluorometric; 2 h, 37 °C, enzyme 500 nM): > 1000 µM

CCC1c2ccsc2CCN1C(=O)Cn1cc(C(=O)O)nn1 (centres unmarked)
IC50 (CTSL; enzyme activity, inhibitor, FRET): > 100 µM

O=C(CCc1ccc(Br)cc1)N[C@H]1CCOC1=O
IC50 (Transcriptional activator protein LasR (lasR, Pseudomonas aeruginosa, UniProt P25084); reporter gene, antagonist; Escherichia coli, JLD271 with LasR plasmid; together with: OdDHL 0.5 nM): 0.12 µM

CC(C)C[C@H](NC(=O)[C@H](CCCNC(=N)N)NC(=O)[C@H](CC(C)C)NC(=O)[C@H](Cc1ccc(O)cc1)NC(=O)[C@H](CCCCN)NC(=O)[C@H](Cc1c[nH]cn1)NC(=O)[C@H](C)NC(=O)[C@H](CCCCN)NC(=O)[C@H](CCCNC(=N)N)NC(=O)[C@@H]1CCCN1C(=O)[C@H](CCCCN)NC(=O)[C@H](CCCNC(=N)N)NC(=O)[C@H](C)NC(=O)[C@@H](N)Cc1ccc(O)cc1)C(=O)N[C@@H](CO)C(=O)N[C@@H](CCCNC(=N)N)C(=O)O
IC50 (Mitogen-activated protein kinase 14; enzyme activity, inhibitor, fluorescence; pH 7.4): 10.4 µM

CC(C)N1CCCCC1C(=O)NC(Cc1ccc(-c2ccccc2)cc1)B(O)O (centres unmarked)
IC50 (20S proteasome, beta1 subunit (Plasmodium falciparum, UniProt Q8I0U7+Q8I6T3); β1 activity, inhibitor; together with: Ac-nLPnLD-AMC): > 10 µM

CC(C)Oc1c(NC(=O)c2ccc(NC(=O)[C@H](CC(N)=O)NC(=O)c3ccc(/N=N/c4ccccc4)cc3)cc2)ccc(C(=O)N/N=C/c2ccc(C(=O)O)cc2)c1O
IC50 (DNA gyrase (gyrA/gyrB, Escherichia coli, UniProt P0AES4+P0AES6); DNA supercoiling, inhibitor; 30 min, 37 °C, after 1 h irradiation at 365 nm): 1 µM

CN(C)S(=O)(=O)c1ccc2nnn(OCc3ccc(C(C)(C)C)cc3)c2c1
IC50 (CTSL; enzyme activity, inhibitor, FRET): > 100 µM

Nc1ccn(C2OC(COP(=O)(O)OP(=O)(O)OP(=O)(O)O)C(O)C2(F)F)c(=O)n1 (centres unmarked)
IC50 (pyrG (Escherichia coli, UniProt P0A7E5); glutamine-dependent CTP formation, inhibitor; together with: 5 mM MgCl2): 11 ± 0.9 µM

CC[C@H](C)[C@H](NC(=O)[C@@H]1CCCN1C(=O)[C@@H]1CCCN1C(=O)[C@@H]1CCCN1C(=O)[C@@H]1CCCN1C(=O)[C@@H](NC(=O)[C@H](CCCNC(=N)N)NC(=O)[C@H](CO)NC(=O)[C@H](CCCCN)NC(=O)[C@H](CCCCN)NC(=O)[C@H](C)NC(=O)[C@@H](N)Cc1ccc(O)cc1)C(C)C)C(=O)N[C@@H](CC(C)C)C(=O)N[C@@H](CC(C)C)C(=O)N[C@@H](CO)C(=O)N[C@@H](CCCNC(=N)N)C(=O)O
IC50 (Mitogen-activated protein kinase 14; enzyme activity, inhibitor, fluorescence; pH 7.4): 147 µM

COC(=O)CNC(=O)[C@H](CC(C)C)NC(=O)[C@@H](Cc1ccc(O)cc1OC)NC(=O)[C@H](CO)NC(=O)[C@@H](NC(=O)[C@H](CC(C)C)NC(=O)[C@@H](Cc1ccc(O)cc1)NC(=O)[C@H](Cc1ccc(O)cc1)NC(=O)NC(=O)O)[C@@H](O)C(=O)O
IC50 (Tyrosine-protein phosphatase non-receptor type 11 (PTPN11, Homo sapiens, UniProt Q06124); enzyme activity, inhibitor, fluorescence): 90 µM

O=C(CN1CN(c2ccccc2)C2(CCN(C(=O)c3cnc4[nH]ncc4c3)CC2)C1=O)NCC(F)(F)F
IC50 (CYP2D6; enzyme activity, inhibitor): 16 µM

CC(C)C[C@H](NC(=O)[C@@H](NC(=O)[C@H](CC(C)C)NC(=O)[C@H](CO)NC(=O)[C@@H](NC(=O)[C@H](CC(N)=O)NC(=O)[C@H](CO)NC(=O)CNC(=O)[C@H](CCCNC(=N)N)NC(=O)[C@H](CCCNC(=N)N)NC(=O)[C@H](CCC(=O)O)NC(=O)[C@H](CCC(N)=O)NC(=O)[C@H](CC(C)C)NC(=O)CNC(=O)[C@H](C)NC(=O)[C@@H](N)Cc1ccc(O)cc1)C(C)C)[C@@H](C)O)C(=O)O
IC50 (Mitogen-activated protein kinase 14; enzyme activity, inhibitor, fluorescence; pH 7.4): 374 µM

CCc1nnc(-c2c(OC)cc(-c3cnc4cc(-c5cnn(C)c5)ccn34)cc2OC)o1
IC50 (CYP2D6; enzyme activity, inhibitor): > 10 µM

CC[C@H](C)[C@@H]1NC(=O)CNC(=O)[C@H](CC(=O)O)NC(=O)[C@H](CC(=O)O)NC(=O)[C@@H]2CSSC[C@@H]3NC(=O)[C@H](Cc4c[nH]cn4)NC(=O)[C@H](CCCNC(=N)N)NC(=O)[C@H](CCCNC(=N)N)NC(=O)[C@@H](NC(=O)[C@H](CO)NC(=O)[C@@H](N)Cc4c[nH]cn4)CSSC[C@H](NC(=O)[C@H](C)NC(=O)[C@H](Cc4c[nH]c5ccccc45)NC(=O)CNC(=O)[C@H](CSSC[C@@H](C(=O)N[C@@H](CCCCN)C(=O)N4CCC[C@H]4C(=O)N[C@@H](CC(C)C)C(=O)N[C@@H](CCCNC(=N)N)C(=O)N[C@H](C(=O)O)C(C)C)NC1=O)NC(=O)[C@H](CCCNC(=N)N)NC(=O)[C@H](CCCNC(=N)N)NC(=O)[C@H](CC(N)=O)NC(=O)[C@H](CCC(=O)O)NC(=O)[C@H](Cc1c[nH]cn1)NC3=O)C(=O)N[C@@H](Cc1ccc(O)cc1)C(=O)N2
IC50 (Potassium voltage-gated channel subfamily A member 1 (KCNA1, Homo sapiens, UniProt Q09470); ion current, inhibitor; pH 7.2): 2.9 µM

O=C(O)C(/C=C/c1ccc(Cl)cc1)=N\Nc1nc(-c2ccc(F)cc2)cs1
IC50 (Cholinesterase (BCHE, Equus caballus, UniProt P81908); enzyme activity, inhibitor): 7.14 µM

CC[C@H](C)[C@H](NC(=O)[C@H](CC(C)C)NC(=O)[C@H](CCCCN)NC(=O)[C@H](CCC(=O)O)NC(=O)[C@H](CCCCN)NC(=O)[C@H](CCCNC(=N)N)NC(=O)[C@@H]1CCCN1C(=O)[C@H](CCCNC(=N)N)NC(=O)[C@H](CCC(N)=O)NC(=O)[C@H](CCCCN)NC(=O)[C@@H]1CCCN1C(=O)[C@H](C)NC(=O)[C@@H](N)Cc1ccc(O)cc1)C(=O)N[C@H](C(=O)N1CCC[C@H]1C(=O)N[C@H](C(=O)O)[C@@H](C)O)[C@@H](C)CC
IC50 (Mitogen-activated protein kinase 14; enzyme activity, inhibitor, fluorescence; pH 7.4): 41 µM

O=C(c1cc(Cc2n[nH]c(=O)c3ccccc23)ccc1F)N1CC(CNC2CC2)C1
IC50 (Protein mono-ADP-ribosyltransferase PARP14 (PARP14, Homo sapiens, UniProt Q460N5); enzyme activity, inhibitor): > 10 µM

CCN(CC)S(=O)(=O)c1ccc2nnn(OCc3ccc(C#N)cc3)c2c1
IC50 (CTSL; enzyme activity, inhibitor, FRET): > 100 µM

CC[C@H](C)[C@H](NC(=O)[C@H](CCCCN)NC(=O)[C@H](CC(C)C)NC(=O)[C@H](CCCCN)NC(=O)[C@H](CCCNC(=N)N)NC(=O)[C@H](CCCCN)NC(=O)[C@H](CCCCN)NC(=O)[C@@H](NC(=O)[C@H](CCCCN)NC(=O)[C@H](CC(N)=O)NC(=O)[C@H](CCCCN)NC(=O)[C@@H](NC(=O)[C@H](C)NC(=O)[C@@H](N)Cc1ccc(O)cc1)[C@@H](C)O)C(C)C)C(=O)N[C@H](C(=O)N[C@@H](CCCNC(=N)N)C(=O)O)[C@@H](C)CC
IC50 (Mitogen-activated protein kinase 14; enzyme activity, inhibitor, fluorescence; pH 7.4): 1.3 µM

COc1ccccc1C1SCC(=O)N1CCCN(C)C (centres unmarked)
IC50 (uncharacterized protein (Anopheles gambiae, UniProt Q7QFG0); enzyme activity, inhibitor, Ellman; together with: 1 mM acetylthiocholine): 46 µM

CC[C@H](C)[C@H](NC(=O)CNC(=O)[C@H](C)NC(=O)[C@H](CCSC)NC(=O)[C@H](CCCNC(=N)N)NC(=O)[C@H](CCCCN)NC(=O)[C@H](Cc1c[nH]c2ccccc12)NC(=O)[C@H](CO)NC(=O)[C@H](CC(C)C)NC(=O)[C@H](CS)NC(=O)[C@H](C)NC(=O)[C@@H](N)Cc1ccc(O)cc1)C(=O)N[C@@H](Cc1ccccc1)C(=O)N[C@@H](Cc1ccccc1)C(=O)N[C@@H](CC(C)C)C(=O)N1CCC[C@H]1C(=O)O
IC50 (Mitogen-activated protein kinase 14; enzyme activity, inhibitor, fluorescence; pH 7.4): 3.94 µM

C[C@@H]1COCCN1c1nc(NCc2cccnc2C(F)(F)F)c2cccnc2n1
IC50 (human phosphodiesterase 3): > 100 µM

For quick reference, copied from above:
CCc1nnc(-c2c(OC)cc(-c3cnc4cc(-c5cnn(C)c5)ccn34)cc2OC)o1
IC50 (CYP2D6; enzyme activity, inhibitor): > 10 µM

CC[C@H](C)[C@@H]1NC(=O)CNC(=O)[C@H](CC(=O)O)NC(=O)[C@H](CC(=O)O)NC(=O)[C@@H]2CSSC[C@@H]3NC(=O)[C@H](Cc4c[nH]cn4)NC(=O)[C@H](CCCNC(=N)N)NC(=O)[C@H](CCCNC(=N)N)NC(=O)[C@@H](NC(=O)[C@H](CO)NC(=O)[C@@H](N)Cc4c[nH]cn4)CSSC[C@H](NC(=O)[C@H](C)NC(=O)[C@H](Cc4c[nH]c5ccccc45)NC(=O)CNC(=O)[C@H](CSSC[C@@H](C(=O)N[C@@H](CCCCN)C(=O)N4CCC[C@H]4C(=O)N[C@@H](CC(C)C)C(=O)N[C@@H](CCCNC(=N)N)C(=O)N[C@H](C(=O)O)C(C)C)NC1=O)NC(=O)[C@H](CCCNC(=N)N)NC(=O)[C@H](CCCNC(=N)N)NC(=O)[C@H](CC(N)=O)NC(=O)[C@H](CCC(=O)O)NC(=O)[C@H](Cc1c[nH]cn1)NC3=O)C(=O)N[C@@H](Cc1ccc(O)cc1)C(=O)N2
IC50 (Potassium voltage-gated channel subfamily A member 1 (KCNA1, Homo sapiens, UniProt Q09470); ion current, inhibitor; pH 7.2): 2.9 µM
